Measured values of several laboratories.
Each line is one published result; not all experiments were run side by side. “And” joins repeats or separate records; there may be more than shown.
Target: Protein-tyrosine kinase 2-beta (PTK2B, Homo sapiens, UniProt Q14289)

SMILES = COc1cc(Nc2nc(C)cc(-c3cnn4nc(OC)ccc34)n2)cc(C(F)(F)F)c1; assay = inhibitor; setting = 1 µM, PYK2; how to read = relative to: control; measurement = remaining activity; result = 99%
SMILES = CCN1CCN(Cc2ccc(NC(=O)c3ccc(C)c(NC(=O)c4cncc(-c5cccs5)c4)c3)cc2C(F)(F)F)CC1; assay = binding, competition with immobilised ligand; setting = 1 µM; measurement = remaining binding; result = 26%
SMILES = COc1c(OCCCN2CCOCC2)ccc2c1N=C(NC(=O)c1cnc(N)nc1)N1CCN=C21; assay = kinase activity, inhibitor; setting = 1 µM; how to read = relative to: untreated control; measurement = remaining activity; result = 106%
SMILES = C=CC(=O)N1CCCC(n2c(=O)c3ncccc3n(Cc3ccc(Oc4ccccc4)cc3)c2=O)C1 (stereo not drawn); assay = cell-free assay, competition with immobilised ligand; setting = 1 µM; measurement = remaining binding; result = 100%
SMILES = O=C=[N][Ru-4]123([n]4c5ccc(O)cc5c5c6c(c7cc(F)c[n+]1c7c54)C(=O)NC6=O)[S+]1CC[S+]2CC[S+]3CC1 (stereo not drawn); assay = enzyme activity; setting = 100 nM, human enzyme, added: 10 µM ATP; how to read = relative to: untreated; measurement = remaining activity; result = 62%
SMILES = Cc1cnc2nc1Nc1cccc(c1)COC/C=C/COCc1cc(ccc1OCCN1CCOCC1)N2; assay = binding, competition with immobilised ligand; setting = 0.1 µM; measurement = remaining binding; result = 84%
SMILES = C=CC(=O)Nc1cccc(-c2cnc3[nH]cc(C(=O)NC(C)(C)C)c3n2)c1; assay = kinase activity; setting = 0.1 µM; measurement = inhibition; result = 10% and 7%
SMILES = Cc1cccc(O[C@H]2CCC[C@@H](C(C)CNCc3ccncc3)C2)c1 (relative stereo); assay = enzyme activity, inhibitor; setting = 1 µM; measurement = inhibition; result = 6%
SMILES = CNC(=O)C1CCN(c2cc(C)c(F)cc2NC(=O)c2ccc(-c3cc(O)ccc3C)c(C)c2)CC1; assay = binding, competition with immobilised ligand; setting = 1 µM; measurement = remaining binding; result = 100%
SMILES = CCn1cc(C(=O)O)c(=O)c2c(N)c(F)c(NC3CCCCC3)cc21; assay = kinase activity; setting = 0.1 µM, added: ATP at Km; measurement = inhibition; result = -0.9%
SMILES = C=CC(=O)N1Cc2nc(-c3cc(-c4cc(Cl)cnc4Cl)c(F)cc3F)n(-c3ccncn3)c2C1; assay = cell-free assay, inhibitor; setting = 1 µM; measurement = inhibition; result = 4.4%
SMILES = CNC(=O)C[C@H](Cc1ccc(C#N)cc1)NC(=O)c1cc(-c2ccc(CN[C@H](C)c3ccc(C)cc3)o2)ccc1Cl; assay = enzyme activity, inhibitor; setting = 1 µM; measurement = activity vs control; result = 114%
SMILES = Nc1ncc(-c2cc(-c3cnn(CC(F)(F)F)c3)ncc2F)nc1C(=O)NC1CNCC(F)C1 (stereo not drawn); assay = enzyme activity; setting = 1 µM; how to read = relative to: DMSO control; measurement = remaining activity; result = 100%
SMILES = NC(=O)[C@@H](O)C[C@H]1CCc2sc3ncnc(O[C@H]4CC[C@H](N5CCOCC5)CC4)c3c21; assay = enzyme activity, inhibitor; setting = 10 µM; measurement = inhibition; result = 7%
SMILES = CC(C)=CC1OC(C)(C)C2C=C3C(=O)C(Cl)=CC(O)C3C3C(O)C4OC4C(=O)C132 (stereo not drawn); assay = cell-free assay, competition with immobilised ligand; setting = 10 µM; measurement = remaining binding; result = 91%

Some of these lines once more:
SMILES = C=CC(=O)Nc1cccc(-c2cnc3[nH]cc(C(=O)NC(C)(C)C)c3n2)c1; assay = kinase activity; setting = 0.1 µM; measurement = inhibition; result = 10% and 7%
SMILES = Cc1cccc(O[C@H]2CCC[C@@H](C(C)CNCc3ccncc3)C2)c1 (relative stereo); assay = enzyme activity, inhibitor; setting = 1 µM; measurement = inhibition; result = 6%
